Results from different studies.
Numbered parts are unrelated; each lists some results of a single study. Substitutions count along the parent as printed.

Sample 1 — target: CCND3, cyclin fold, Cln2 fusion (human); method: yeast growth competition, sequencing; matrix: yeast; setting: weak parent motif; baseline: not given; direction: higher = stronger binding; quantity: normalised enrichment score
Starting sequence: E2F7 docking peptide (human); SSAQRRLEIPSGG
SSAQRRLEIPSGA [G13A]: 0.0561
SSAQKRLEFPSGG [R5K I9F]: -0.0932
SSAQRRLAIPSGG [E8A]: 0.101
SSAQRRAEIPSGG [L7A]: 0.134
SSAQRRLEFPSGG [I9F]: 0.569
SSAQRRLEIASGG [P10A]: 0.106
SSAQRALEIPSGG [R6A]: -0.0414
SSAARRLEIPSGG [Q4A]: 0.13

Sample 2 — method: RNA Bind-n-Seq; form: RNA; matrix: in vitro; concentration: 365 nM; baseline: no-protein control; direction: higher = stronger binding; quantity: RBNS enrichment (R)
Target: RNA binding protein fox-1 homolog 2, RRM domain, GST-SBP tag (RBFOX2, Homo sapiens, UniProt O43251-10, residues 100-194)
Setting: natural RNA segment, single round, ends assumed
Constant ends, left off below: GGGAGUUCUACAGUCCGACGAUC … UGGAAUUCUCGGGUGCCAA
Construct (chain): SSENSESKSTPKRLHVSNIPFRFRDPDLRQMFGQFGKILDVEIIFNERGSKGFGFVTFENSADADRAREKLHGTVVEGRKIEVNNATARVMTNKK
AUUGUGGGAAUUAAGGAAGUGACUCAUCCUCUUGAAGAUGCUGAAACAGGAGAGAAAGGGGAUGUAUCCAUGGGGGCAGGGCAUGACUUUGUCCCAUUUCUAAAGGCCUC: 0.53
AGGCAGAGAGGCAGGCUGCCAGGCGCCACCAGCUGCCCCGCCCUUCGGCUGCCCAGCUCCGUGGAUAGACCUCCUCUGGGGGUGGUGCUGCUUGUAUGUUUACAUGAAAU: 0.891
UGGGGUCAUCUGGUUAUUUAGGGCAUUGAGACUGGAGCCGUGGCUCAGAUGAUUGGGGCAGAAAAGGCAGGGUGGCCCACACCUGCUCUGACUGCUAGCUUCCCACAGAU: 0.559
CUGUGAGCCUGGUCCUUCUAGCAACCCUCAGUUAAGAUCCUGAGGGACAGGUGCAGCAGCAGCUGGCUGGAGUGGAUCAGGACUCCUGUGACUCGUGGGGCUCGGGGGAG: 0.529
GUUGAGAAUGUUAUUUGAAGAAUGCCUGUGAAGCCAGGUGUGGGUUCUACUCAGUGCCAUAGAUAGACUGAGUCUUCUCUCGUAGGUUACCAUUACAUAGUAAUUUUGAU: 0.887
AAUUCAGCACCUAUUUUGAAUUAAUGUGAGACCACAGGUGGCAGGCAGAUUCCUGCUUGGCAUAAGCAUUUGUAGGUCUUCAUUCAAUUCUGUUAGAUUUUUUUAUUGGA: 0.584
UUGCUUCUAUUGUUUGGGCAUUGUGGAUAAUGUACAGAUUUAAAAACAAAUCUUGUUGCUGAUUUGUCCAUUUCUUUCCCUGCACUUUGUUACAUCUGGGAUACAGUCUA: 1.78
CUACUUCAUUACCGCACUUUCUUGUAUUAAUAGUAUCUUAAAGCUGUUUUUAUUUUUCUUAGAAAUGAGAGACACUGGCAGUCAUAACUGUACUAGUUACUAUGAACAUG: 0.426
ACCGGAAGGUUUAUCACCACCCUGGGAAACAUAAUGCUGCCCCUUGGGCCCAGAAAGGGGUUUCCAGCUGGGGGCACGUGGACUGGUUCUGCUGUUUUUGGCAGUCGCUU: 0.191
GGGACAGCAAAAGCCAGUAACCAUGAGUAUGAGGAAAUCUCUUUCUGUUGCUGGCUUACAGUUUCUCUGUGUGCUUUGUGGUUGCUGUCAUAUUUGCUCUAGAAGAAAAA: 0.387

Sample 3 — method: protein-binding microarray; form: double-stranded DNA, one strand shown; matrix: in vitro; concentration: 250 nM; setting: 60-bp whole probe; with: salmon DNA 0.4 mg/ml; baseline: random background probes; direction: higher = stronger binding; quantity: log fluorescence; constant ends, left off below: GCCTAGCAC … GTCTTGATTCGCTTGACGCTGCTG
Target: Interferon regulatory factor 5, full length, phosphomimetic (IRF5, Homo sapiens, UniProt Q13568-2, residues 1-514, K96S/S451D/S453D/S456D/S462D)
TTAGAACTGATTATCGATTAGTGCTAG: 5.31 z-score
ATGCTTCTGTATTCATGAAGGTGCTAG: 0.445 z-score
GACGATATGAGTTTCGAGACGTGCTAG: 4.96 z-score
GACGGCCTCCTTATCCTGACGTGCTAG: -0.438 z-score
TTAGGTTTCGGGTACCGGTTAGTGCTA: 8.8 z-score
GACGGACTGGGCCTGGGGACGTGCTAG: -0.857 z-score
CTAGATTTCGGGTTTCGATTAGTGCTA: 8.22 z-score
TTAGATATGGGGTATCGATTAGTGCTA: 2.36 z-score
GACGGTCTGCTTATCCTGACGTGCTAG: -0.234 z-score
TTACATTTCAGTCTCGATTAGTGCTAG: 3.51 z-score

Further values, each from its own experiment
PhoQ, residues 284 288 289 292 302 303 NSMLDC
fold induction (PhoP, residues 12 14 15 18 19 TTLRV (Escherichia coli, UniProt P23836); Sort-seq, refers to: YFP reporter; E. coli; PhoQ-PhoP variant library, with: 10 µM Mg2+; baseline: high Mg2+ state, higher = stronger signaling): 7.41
